Measured values of several laboratories.
Every numbered part comes from another study and shows a few of its results, in no order. Positions count from the first letter of the parent shown. Numbers after ± are the reported error.
Sequence of UniProt P41143 (whole entry, looked up): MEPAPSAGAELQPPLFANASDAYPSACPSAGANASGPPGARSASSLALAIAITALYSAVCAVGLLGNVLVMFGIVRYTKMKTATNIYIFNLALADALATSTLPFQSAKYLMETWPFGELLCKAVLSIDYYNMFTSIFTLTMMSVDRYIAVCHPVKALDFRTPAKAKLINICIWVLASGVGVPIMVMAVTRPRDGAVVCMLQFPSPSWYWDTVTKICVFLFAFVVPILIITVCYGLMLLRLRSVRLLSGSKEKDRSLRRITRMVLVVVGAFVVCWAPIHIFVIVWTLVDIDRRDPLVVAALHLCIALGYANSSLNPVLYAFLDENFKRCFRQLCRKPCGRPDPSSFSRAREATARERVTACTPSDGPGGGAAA
Sequence of UniProt P9WI81 (whole entry, looked up): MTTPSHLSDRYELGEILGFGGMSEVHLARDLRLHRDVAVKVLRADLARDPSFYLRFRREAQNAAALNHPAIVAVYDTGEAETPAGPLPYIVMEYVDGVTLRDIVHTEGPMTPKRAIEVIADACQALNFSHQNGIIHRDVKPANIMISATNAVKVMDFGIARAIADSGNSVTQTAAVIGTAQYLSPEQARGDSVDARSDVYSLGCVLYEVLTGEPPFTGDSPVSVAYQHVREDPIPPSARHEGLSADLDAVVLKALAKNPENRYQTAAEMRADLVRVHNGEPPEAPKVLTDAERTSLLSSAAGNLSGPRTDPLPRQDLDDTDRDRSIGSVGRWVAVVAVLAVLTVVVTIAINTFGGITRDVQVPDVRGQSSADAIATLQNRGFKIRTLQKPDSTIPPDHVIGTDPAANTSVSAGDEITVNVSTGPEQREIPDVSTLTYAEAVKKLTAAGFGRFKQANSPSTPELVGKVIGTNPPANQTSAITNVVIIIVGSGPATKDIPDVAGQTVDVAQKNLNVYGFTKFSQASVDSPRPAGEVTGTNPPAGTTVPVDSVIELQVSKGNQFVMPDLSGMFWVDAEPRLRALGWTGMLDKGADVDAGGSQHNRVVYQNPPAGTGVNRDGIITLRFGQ
Sequence of UniProt O75417 (whole entry, unmodified, looked up): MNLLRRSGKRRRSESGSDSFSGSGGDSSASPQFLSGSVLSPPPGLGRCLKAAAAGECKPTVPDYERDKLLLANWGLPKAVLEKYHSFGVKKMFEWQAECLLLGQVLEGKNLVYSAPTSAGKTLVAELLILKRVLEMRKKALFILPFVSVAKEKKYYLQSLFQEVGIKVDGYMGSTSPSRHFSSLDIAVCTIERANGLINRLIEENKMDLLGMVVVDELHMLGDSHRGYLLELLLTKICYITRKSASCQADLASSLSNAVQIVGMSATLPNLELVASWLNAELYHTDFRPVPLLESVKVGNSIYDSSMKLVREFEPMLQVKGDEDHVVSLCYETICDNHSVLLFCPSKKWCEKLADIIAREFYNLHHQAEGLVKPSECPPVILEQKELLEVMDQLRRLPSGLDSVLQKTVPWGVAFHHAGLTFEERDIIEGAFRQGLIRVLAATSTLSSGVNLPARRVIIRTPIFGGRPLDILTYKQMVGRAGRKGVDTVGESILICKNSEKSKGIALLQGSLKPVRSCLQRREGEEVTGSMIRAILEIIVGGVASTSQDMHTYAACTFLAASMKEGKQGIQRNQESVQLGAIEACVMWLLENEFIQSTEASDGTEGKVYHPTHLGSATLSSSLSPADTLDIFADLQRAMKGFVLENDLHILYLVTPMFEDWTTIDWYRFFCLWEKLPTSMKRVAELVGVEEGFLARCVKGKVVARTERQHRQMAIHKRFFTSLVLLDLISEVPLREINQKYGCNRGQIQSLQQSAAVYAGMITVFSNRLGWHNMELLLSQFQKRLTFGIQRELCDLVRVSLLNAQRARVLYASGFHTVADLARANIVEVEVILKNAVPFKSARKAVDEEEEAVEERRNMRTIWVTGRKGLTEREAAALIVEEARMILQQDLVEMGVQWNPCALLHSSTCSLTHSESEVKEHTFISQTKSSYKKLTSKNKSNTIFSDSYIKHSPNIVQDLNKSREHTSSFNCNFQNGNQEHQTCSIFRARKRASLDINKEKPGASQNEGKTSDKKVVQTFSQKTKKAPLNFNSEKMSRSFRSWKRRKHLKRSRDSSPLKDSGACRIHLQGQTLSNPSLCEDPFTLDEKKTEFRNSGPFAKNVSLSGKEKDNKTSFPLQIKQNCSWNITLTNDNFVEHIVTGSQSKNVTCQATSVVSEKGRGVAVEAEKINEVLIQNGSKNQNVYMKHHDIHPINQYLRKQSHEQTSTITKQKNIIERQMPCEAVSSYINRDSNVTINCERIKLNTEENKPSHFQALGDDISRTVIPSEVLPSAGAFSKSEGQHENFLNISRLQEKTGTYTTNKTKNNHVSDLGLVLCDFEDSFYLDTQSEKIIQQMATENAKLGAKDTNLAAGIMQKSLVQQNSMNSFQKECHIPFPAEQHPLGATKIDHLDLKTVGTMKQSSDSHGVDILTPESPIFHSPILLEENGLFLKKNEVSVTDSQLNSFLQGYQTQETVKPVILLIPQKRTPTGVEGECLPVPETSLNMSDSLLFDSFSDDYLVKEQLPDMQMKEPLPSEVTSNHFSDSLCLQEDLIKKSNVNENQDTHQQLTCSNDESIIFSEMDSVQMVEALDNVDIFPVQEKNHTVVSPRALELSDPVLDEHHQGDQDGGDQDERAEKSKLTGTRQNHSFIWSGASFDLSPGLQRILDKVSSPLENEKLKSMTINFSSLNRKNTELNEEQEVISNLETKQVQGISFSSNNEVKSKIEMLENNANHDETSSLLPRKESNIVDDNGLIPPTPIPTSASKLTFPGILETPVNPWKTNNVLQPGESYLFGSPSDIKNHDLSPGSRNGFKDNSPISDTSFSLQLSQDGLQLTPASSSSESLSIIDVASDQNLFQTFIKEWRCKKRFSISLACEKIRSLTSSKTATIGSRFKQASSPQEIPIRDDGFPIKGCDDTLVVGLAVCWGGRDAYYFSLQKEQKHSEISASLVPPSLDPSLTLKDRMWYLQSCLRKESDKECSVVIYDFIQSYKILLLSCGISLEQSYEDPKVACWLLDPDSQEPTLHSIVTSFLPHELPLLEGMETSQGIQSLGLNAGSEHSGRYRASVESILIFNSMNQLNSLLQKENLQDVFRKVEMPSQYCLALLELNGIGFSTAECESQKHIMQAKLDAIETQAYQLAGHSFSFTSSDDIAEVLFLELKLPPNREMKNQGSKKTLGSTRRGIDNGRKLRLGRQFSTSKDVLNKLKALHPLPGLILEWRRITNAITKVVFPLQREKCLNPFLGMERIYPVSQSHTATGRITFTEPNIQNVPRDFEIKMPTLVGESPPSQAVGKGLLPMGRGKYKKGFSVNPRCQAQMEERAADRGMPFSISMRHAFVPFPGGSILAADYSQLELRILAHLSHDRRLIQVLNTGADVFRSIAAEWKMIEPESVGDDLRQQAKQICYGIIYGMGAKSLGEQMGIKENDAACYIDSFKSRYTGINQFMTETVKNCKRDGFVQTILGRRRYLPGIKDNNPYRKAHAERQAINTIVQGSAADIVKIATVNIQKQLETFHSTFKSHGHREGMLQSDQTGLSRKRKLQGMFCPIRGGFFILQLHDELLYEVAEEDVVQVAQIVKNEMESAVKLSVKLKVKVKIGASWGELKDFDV

Block 1 — target: CCNE1, cyclin fold, Cln2 fusion (human); method: yeast growth competition, sequencing; sample: yeast; setting: strong parent motif; reference: not given; direction: higher = stronger binding; measurement: normalised enrichment score
Starting sequence: viral docking peptide; KGVKRKLFAEDSS; partner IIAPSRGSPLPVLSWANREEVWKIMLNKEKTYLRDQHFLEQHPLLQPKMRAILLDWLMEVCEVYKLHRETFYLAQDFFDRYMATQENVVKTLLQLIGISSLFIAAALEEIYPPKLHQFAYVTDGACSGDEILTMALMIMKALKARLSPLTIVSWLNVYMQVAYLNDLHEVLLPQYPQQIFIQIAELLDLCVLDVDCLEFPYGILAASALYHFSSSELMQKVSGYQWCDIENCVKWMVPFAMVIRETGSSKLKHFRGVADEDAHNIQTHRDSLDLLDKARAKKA
KGVKRKPFAEDSS [L7P]: 0.075
KGVKRKLFWEDSS [A9W]: 7.01
KGVKRTLFAEDSS [K6T]: 6.41
KGVWRKLFAEDSS [K4W]: 1.49
KGVKRLLFAEDSS [K6L]: 5.22
KGVKRFLFAEDSS [K6F]: 3.54
KGVKRKLSAEDSS [F8S]: -0.284
KGVKRKLFAEDGS [S12G]: 6.99

Block 2 — effect on: binding; method: phage display NGS; molecule type: peptide; concentration: concentration not given; reference: input library; measurement: enrichment fold change
Target: UDP-N-acetylglucosamine--peptide N-acetylglucosaminyltransferase 110 kDa subunit (OGT, Homo sapiens, UniProt O15294)
Construct (O15294 1-1046): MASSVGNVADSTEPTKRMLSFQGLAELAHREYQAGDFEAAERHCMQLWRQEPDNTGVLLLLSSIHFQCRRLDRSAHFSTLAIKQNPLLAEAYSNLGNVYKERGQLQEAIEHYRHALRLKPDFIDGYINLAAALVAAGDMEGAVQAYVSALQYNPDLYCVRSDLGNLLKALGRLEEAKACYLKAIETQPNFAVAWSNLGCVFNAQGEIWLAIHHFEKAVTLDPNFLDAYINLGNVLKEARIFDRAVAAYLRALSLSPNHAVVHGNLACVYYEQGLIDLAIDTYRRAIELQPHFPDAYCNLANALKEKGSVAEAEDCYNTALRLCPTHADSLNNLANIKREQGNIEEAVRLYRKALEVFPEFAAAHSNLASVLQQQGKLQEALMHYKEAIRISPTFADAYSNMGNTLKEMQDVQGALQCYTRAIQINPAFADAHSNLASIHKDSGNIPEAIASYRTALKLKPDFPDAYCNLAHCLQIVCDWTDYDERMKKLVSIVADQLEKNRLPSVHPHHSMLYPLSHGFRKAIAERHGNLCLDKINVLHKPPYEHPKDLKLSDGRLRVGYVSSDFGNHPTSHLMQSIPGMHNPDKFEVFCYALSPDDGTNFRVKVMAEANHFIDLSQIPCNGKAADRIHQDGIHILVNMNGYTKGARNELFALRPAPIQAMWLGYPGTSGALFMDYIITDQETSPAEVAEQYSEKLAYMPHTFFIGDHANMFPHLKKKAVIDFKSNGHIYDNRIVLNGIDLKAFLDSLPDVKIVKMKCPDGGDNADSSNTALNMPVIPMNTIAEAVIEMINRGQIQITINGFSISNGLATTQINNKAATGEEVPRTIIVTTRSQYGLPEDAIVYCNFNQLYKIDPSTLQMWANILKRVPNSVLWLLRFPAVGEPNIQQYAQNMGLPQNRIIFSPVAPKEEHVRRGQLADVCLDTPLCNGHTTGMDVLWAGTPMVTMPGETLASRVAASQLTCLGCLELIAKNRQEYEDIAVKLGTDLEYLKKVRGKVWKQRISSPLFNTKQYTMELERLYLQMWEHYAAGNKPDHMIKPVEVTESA
IERDNQYHPMYIIDI: 5.1
GADYLPKYQVVYNVR: 7.85
HQFDGHSNLHIHSIE: 3.48
RMYHNHVTDRHVTQ: 3
HDLHSKHGNTQPHDH: 3.1
HTKGFMHRIQHHYYF: 9.45
HIGRHTGPHYYNIVH: 3.81
HLSAMHPELHYHGNH: 8.02

Single results of other studies
NN=C(N)N
remaining activity (DNA polymerase theta, ATPase domain (POLQ, Homo sapiens, UniProt O75417); enzyme activity, inhibitor; 77 µM; reference: untreated): 99.7%

CNCc1ccccc1-c1csc([C@H](C)Nc2nc(C)nc3cc(OC)c(OC)cc23)c1
remaining binding (pknB (Mycobacterium tuberculosis, UniProt P9WI81); cell-free assay, competition with immobilised ligand; 1 µM): 90%

CCOC(=O)CC(SP(=S)(OC)OC)C(=O)OCC (centres unmarked)
GFP-positive cells (HEK-293T; pseudovirus infection, FDA-approved drug library counter-screen; VSV pseudotyped with VSV-G; 10 µM, 16 h; reference: vehicle-treated): 115%

CCN(CC)C(=O)c1ccc(C2=CC3(CCNCC3)Oc3cccc(O)c32)cc1
Emax (Delta-type opioid receptor, with Gi2 (OPRD1, Homo sapiens, UniProt P41143); human cells): 102 ± 3%

For quick reference, copied from above (block 1):
KGVWRKLFAEDSS [K4W]: 1.49
KGVKRLLFAEDSS [K6L]: 5.22
KGVKRFLFAEDSS [K6F]: 3.54
